Measured values from different studies.
Parts stem from different laboratories: compare values within a part only.
Sequence of UniProt P00519 (whole entry, looked up): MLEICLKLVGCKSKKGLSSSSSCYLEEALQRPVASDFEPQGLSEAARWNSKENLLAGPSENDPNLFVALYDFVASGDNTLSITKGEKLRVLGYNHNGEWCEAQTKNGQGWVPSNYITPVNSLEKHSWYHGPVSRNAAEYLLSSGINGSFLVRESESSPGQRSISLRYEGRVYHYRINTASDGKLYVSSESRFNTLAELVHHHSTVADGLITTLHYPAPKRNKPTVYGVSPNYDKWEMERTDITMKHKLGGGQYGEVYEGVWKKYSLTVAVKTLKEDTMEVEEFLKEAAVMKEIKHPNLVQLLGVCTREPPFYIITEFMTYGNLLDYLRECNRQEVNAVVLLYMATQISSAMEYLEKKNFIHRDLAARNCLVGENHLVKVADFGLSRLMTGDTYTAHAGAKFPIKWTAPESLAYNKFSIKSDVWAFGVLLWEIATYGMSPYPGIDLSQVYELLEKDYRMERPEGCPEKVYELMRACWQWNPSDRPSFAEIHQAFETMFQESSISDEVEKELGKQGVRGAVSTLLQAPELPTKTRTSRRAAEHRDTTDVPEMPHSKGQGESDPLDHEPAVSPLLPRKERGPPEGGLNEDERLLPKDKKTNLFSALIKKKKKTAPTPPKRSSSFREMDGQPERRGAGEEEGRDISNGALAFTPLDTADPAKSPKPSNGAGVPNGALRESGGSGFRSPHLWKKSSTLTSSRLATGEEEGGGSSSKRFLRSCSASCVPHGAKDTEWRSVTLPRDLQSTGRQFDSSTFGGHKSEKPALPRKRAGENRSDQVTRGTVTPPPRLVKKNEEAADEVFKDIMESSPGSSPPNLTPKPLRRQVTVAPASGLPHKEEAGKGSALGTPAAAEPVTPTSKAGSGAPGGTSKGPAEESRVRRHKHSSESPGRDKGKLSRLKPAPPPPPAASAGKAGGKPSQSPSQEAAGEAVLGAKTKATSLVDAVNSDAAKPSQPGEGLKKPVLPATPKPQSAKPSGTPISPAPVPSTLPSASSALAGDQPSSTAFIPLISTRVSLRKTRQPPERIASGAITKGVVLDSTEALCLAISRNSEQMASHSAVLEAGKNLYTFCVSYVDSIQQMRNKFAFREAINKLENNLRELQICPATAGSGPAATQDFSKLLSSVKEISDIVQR
Sequence of UniProt Q9UM73 (whole entry, unmodified, looked up): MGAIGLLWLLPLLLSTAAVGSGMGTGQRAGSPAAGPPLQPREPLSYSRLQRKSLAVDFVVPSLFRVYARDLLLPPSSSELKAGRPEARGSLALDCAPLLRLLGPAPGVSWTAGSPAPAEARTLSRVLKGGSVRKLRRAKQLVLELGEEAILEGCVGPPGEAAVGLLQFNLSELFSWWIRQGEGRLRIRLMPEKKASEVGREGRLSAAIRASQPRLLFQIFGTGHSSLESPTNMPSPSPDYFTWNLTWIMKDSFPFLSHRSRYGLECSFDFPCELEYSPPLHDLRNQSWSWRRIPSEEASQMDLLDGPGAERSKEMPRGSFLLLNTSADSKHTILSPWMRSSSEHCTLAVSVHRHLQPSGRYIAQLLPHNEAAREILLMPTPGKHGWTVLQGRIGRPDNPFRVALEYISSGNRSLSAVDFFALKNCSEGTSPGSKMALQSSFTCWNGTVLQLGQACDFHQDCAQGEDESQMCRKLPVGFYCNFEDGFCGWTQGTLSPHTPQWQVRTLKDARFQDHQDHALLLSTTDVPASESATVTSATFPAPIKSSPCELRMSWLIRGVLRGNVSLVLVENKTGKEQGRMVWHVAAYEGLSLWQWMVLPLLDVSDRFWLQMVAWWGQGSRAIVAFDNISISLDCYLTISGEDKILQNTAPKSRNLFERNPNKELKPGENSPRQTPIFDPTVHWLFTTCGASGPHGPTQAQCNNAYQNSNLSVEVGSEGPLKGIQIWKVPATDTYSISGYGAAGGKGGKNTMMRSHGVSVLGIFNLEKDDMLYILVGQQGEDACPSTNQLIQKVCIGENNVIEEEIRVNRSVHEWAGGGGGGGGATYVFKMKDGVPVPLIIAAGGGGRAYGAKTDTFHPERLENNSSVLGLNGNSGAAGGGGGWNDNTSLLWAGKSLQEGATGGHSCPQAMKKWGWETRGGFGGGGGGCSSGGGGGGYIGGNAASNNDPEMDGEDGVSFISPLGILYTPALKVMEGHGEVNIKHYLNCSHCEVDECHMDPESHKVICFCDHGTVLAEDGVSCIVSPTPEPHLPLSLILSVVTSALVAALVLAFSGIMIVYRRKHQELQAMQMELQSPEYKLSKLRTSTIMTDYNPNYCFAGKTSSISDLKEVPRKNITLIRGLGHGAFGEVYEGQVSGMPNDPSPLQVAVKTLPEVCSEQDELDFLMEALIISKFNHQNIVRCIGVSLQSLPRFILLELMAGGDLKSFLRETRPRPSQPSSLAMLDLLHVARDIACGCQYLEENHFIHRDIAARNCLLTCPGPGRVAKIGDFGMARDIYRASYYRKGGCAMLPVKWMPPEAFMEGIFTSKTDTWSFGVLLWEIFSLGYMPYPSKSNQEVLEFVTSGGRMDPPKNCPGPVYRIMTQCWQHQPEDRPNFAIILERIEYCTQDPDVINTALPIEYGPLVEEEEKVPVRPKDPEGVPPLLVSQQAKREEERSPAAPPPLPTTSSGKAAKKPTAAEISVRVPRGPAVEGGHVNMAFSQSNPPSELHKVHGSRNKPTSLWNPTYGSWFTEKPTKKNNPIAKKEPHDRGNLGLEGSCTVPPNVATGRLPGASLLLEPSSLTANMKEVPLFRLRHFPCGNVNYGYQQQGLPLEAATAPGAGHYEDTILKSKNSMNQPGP
Sequence of UniProt P0C1S8 (whole entry, looked up): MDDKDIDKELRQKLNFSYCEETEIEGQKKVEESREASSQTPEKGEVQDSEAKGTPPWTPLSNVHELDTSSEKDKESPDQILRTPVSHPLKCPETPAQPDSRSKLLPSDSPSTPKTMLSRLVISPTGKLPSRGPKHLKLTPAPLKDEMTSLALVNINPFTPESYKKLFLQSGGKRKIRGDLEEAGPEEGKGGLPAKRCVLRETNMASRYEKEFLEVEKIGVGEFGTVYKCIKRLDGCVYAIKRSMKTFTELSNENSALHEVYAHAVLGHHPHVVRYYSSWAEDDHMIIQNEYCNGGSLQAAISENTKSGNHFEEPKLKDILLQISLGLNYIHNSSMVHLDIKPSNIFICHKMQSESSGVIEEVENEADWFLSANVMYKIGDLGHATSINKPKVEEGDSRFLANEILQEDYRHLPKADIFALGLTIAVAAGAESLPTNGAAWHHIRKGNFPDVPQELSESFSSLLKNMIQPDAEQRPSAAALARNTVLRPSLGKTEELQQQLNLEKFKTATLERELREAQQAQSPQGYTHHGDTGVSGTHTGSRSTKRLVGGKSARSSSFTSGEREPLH
Sequence of UniProt O43353 (whole entry, looked up): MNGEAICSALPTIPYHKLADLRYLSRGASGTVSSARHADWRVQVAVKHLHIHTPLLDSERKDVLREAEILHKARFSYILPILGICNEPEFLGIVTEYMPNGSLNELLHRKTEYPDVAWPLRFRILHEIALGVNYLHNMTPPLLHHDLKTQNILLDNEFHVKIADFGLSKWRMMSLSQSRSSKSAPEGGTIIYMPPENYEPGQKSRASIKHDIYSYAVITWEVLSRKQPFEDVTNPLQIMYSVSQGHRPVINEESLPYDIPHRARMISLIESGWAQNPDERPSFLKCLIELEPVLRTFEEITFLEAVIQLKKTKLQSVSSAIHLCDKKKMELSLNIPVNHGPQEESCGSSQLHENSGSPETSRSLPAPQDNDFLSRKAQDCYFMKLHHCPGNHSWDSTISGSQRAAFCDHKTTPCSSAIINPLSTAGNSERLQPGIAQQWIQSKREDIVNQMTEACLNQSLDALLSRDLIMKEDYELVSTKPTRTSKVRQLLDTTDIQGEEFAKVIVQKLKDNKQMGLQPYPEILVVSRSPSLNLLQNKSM
Sequence of UniProt P11309 (whole entry, looked up): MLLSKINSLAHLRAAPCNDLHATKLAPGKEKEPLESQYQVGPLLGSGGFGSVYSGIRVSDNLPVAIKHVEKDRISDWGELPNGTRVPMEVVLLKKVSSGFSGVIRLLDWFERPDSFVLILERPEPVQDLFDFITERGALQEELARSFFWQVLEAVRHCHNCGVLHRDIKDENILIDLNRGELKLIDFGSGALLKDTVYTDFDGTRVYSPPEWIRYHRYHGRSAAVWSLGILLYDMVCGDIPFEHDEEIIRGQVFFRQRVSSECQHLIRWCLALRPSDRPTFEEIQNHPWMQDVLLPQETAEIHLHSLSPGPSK
Sequence of UniProt Q00526 (whole entry, looked up): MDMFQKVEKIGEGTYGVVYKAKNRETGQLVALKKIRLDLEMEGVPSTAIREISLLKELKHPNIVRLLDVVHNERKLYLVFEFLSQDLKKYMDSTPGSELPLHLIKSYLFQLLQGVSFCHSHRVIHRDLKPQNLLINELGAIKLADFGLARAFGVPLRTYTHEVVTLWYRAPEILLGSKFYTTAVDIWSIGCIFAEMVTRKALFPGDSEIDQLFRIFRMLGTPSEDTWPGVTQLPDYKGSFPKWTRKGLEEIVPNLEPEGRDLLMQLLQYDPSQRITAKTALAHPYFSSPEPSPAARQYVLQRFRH

Study 1 — observed: cell-free assay; technique: competition with immobilised ligand; tested at: 1 µM
Compound: Cc1nc(C2CCN(C(=O)c3ccc(OC(F)(F)F)cc3N)CC2)c2ncc(N3CCN(C)CC3)cc2n1
target	remaining binding
PIM1 (Homo sapiens, UniProt P11309)	100%
FLT3 (Homo sapiens, UniProt P36888, ITD)	100%
ALK (Homo sapiens, UniProt Q9UM73, C1156Y)	100%
HIPK3 (Homo sapiens, UniProt Q9H422)	96%
Tyrosine-protein kinase ABL1, phosphorylated (ABL1, Homo sapiens, UniProt P00519)	92%
ANKK1 (Homo sapiens, UniProt Q8NFD2)	81%
MAPK3 (Homo sapiens, UniProt P27361)	98%
RIOK3 (Homo sapiens, UniProt O14730)	87%
PDGFRB (Homo sapiens, UniProt P09619)	95%
PI4KB (Homo sapiens, UniProt Q9UBF8)	84%
CAMK1 (Homo sapiens, UniProt Q14012)	100%
CSNK1G1 (Homo sapiens, UniProt Q9HCP0)	100%
FLT3 (Homo sapiens, UniProt P36888, N841I)	100%
WEE2 (Homo sapiens, UniProt P0C1S8)	100%
SGK2 (Homo sapiens, UniProt Q9HBY8)	94%
FLT3 (Homo sapiens, UniProt P36888)	100%
MERTK (Homo sapiens, UniProt Q12866)	87%
NEK4 (Homo sapiens, UniProt P51957)	100%
GAK (Homo sapiens, UniProt O14976)	100%
PTK6 (Homo sapiens, UniProt Q13882)	100%
Ribosomal protein S6 kinase alpha-5, C-terminal kinase domain (RPS6KA5, Homo sapiens, UniProt O75582)	90%
RIPK2 (Homo sapiens, UniProt O43353)	94%
LATS1 (Homo sapiens, UniProt O95835)	78%
PRKG2 (Homo sapiens, UniProt Q13237)	74%
NEK6 (Homo sapiens, UniProt Q9HC98)	100%

Study 2 — observed: enzyme activity; mode: inhibitor; tested at: 10 µM
Target: Calcium/calmodulin-dependent protein kinase type II subunit alpha (CAMK2A, Homo sapiens, UniProt Q9UQM7)
Sequence of UniProt Q9UQM7 (whole entry, looked up): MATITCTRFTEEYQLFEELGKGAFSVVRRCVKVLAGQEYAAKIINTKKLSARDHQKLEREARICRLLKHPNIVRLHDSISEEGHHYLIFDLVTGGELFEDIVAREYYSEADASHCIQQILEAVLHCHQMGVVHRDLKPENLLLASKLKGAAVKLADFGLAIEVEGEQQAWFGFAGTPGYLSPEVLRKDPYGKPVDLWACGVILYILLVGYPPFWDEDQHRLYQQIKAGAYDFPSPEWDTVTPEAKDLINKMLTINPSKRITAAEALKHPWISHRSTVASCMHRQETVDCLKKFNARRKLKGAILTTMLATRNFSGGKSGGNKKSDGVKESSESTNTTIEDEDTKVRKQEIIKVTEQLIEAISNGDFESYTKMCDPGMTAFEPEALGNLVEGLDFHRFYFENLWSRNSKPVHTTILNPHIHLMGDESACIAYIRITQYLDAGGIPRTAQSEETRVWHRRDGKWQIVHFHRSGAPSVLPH
Structure (SMILES)	inhibition
CC(C)(C)NC[C@@H](O)COc1ccccc1C1CCCC1	-5%
O=C(O)CC(O)C(=O)O (stereo not shown)	-2%
CS(C)(=O)=O	-14%
CC[C@H]1OC(=O)[C@H](C)[C@@H](O[C@H]2C[C@@](C)(OC)[C@@H](O)[C@H](C)O2)[C@H](C)[C@@H](O[C@@H]2O[C@H](C)C[C@H](N(C)C)[C@H]2O)[C@](C)(O)C[C@@H](C)C(=O)[C@H](C)[C@H]2OC(=O)O[C@@]21C	-4%
CCC(=O)NS(=O)(=O)c1ccc(NC(=O)Cc2ccc(Br)c(Oc3cc(Cl)cc(C#N)c3)c2F)c(Cl)c1	3%
C=CCc1ccccc1OCC(O)CNC(C)C (stereo not shown)	1%
C=C1C(=O)O[C@H]2C[C@H](C)C(/C=C/C(C)=O)=CC[C@H]12	-3%
O=C(O)[C@H]1O[C@@H](Oc2cc(O)c3c(=O)cc(-c4ccccc4)oc3c2)[C@H](O)[C@@H](O)[C@@H]1O	16%
NC(=O)NCCCC(N)C(=O)O (stereo not shown)	24%
COc1ccc(O)c(N)c1	10%
O=C(OCc1ccccc1)c1ccccc1	-3%
NC[C@H]1O[C@H](O[C@H]2[C@H](O[C@@H]3O[C@H](CO)[C@@H](O)[C@H]3O)[C@@H](O)[C@H](N)C[C@@H]2N)[C@H](N)[C@@H](O)[C@@H]1O	9%
O=C(O)c1ccnc2ccccc12	-28%
CC(C)C12CCC(C)(CC1)O2	1%
C[C@H]1C[C@H]2[C@@H]3CCC4=CC(=O)C=C[C@]4(C)[C@@]3(Cl)[C@@H](O)C[C@]2(C)[C@@]1(O)C(=O)CO	-6%
CNCCCN1c2ccccc2CCc2ccccc21	-2%
CN(C)CCOC(=O)COc1ccc(Cl)cc1	-14%
OC[C@H]1NCC[C@@H](O)[C@@H]1O	44%

Study 3 — SMILES: NCc1ccc(Nc2ncc(F)c(Nc3ccccc3)n2)cc1
target	test	test system	IC50 [µM]
Trypanosoma brucei kinase Tb427tmp.01.3110	binding, kinobead competition	Trypanosoma brucei lysate	> 10
Trypanosoma brucei kinase Tb427tmp.160.1200	binding, kinobead competition	Trypanosoma brucei lysate	> 10
PIP4K2B (Homo sapiens, UniProt P78356)	–	–	> 10
MAP2K2 (Homo sapiens, UniProt P36507)	–	–	> 10
Trypanosoma brucei protein Tb427tmp.01.2460	binding, kinobead competition	Trypanosoma brucei lysate	> 10
CSNK2A1 (Homo sapiens, UniProt P68400)	–	–	> 10
Eukaryotic translation initiation factor 3 subunit J (Homo sapiens, UniProt O75822)	–	–	> 10
TGFBR1 (Homo sapiens, UniProt P36897)	–	–	> 10
HSPA5 (Homo sapiens, UniProt P11021)	–	–	> 10
Alpha-actinin-1 (Homo sapiens, UniProt P12814)	–	–	> 10
protein Tb427tmp.211.1150	kinobead TMT proteomics	Trypanosoma brucei, cell lysate	> 10
ABL1 (Homo sapiens, UniProt P00519)	–	–	> 10
Trypanosoma brucei protein Tb427tmp.211.1690	binding, kinobead competition	Trypanosoma brucei lysate	> 10
Trypanosoma brucei protein Tb427tmp.01.1680	binding, kinobead competition	Trypanosoma brucei lysate	> 10
protein Tb427tmp.03.0090	kinobead TMT proteomics	Trypanosoma brucei, cell lysate	> 10
Trypanosoma brucei kinase Tb427tmp.02.5450	binding, kinobead competition	Trypanosoma brucei lysate	> 10

Study 4 — observed: enzyme activity; mode: inhibitor; tested at: 0.5 µM; baseline: control
Structure (SMILES): O=Nc1c(-c2c(O)[nH]c3ccccc23)[nH]c2ccccc12
target	remaining activity
HIPK1 (Homo sapiens, UniProt Q86Z02)	98.9%
LIM domain kinase 1 (LIMK1, Homo sapiens, UniProt P53667)	65.9%
TAOK3 (Homo sapiens, UniProt Q9H2K8)	62.6%
PASK (Homo sapiens, UniProt Q96RG2)	94.1%
STK25 (Homo sapiens, UniProt O00506)	87.5%
SRC (Homo sapiens, UniProt P12931)	65.1%
FYN (Homo sapiens, UniProt P06241)	43.3%
Insulin receptor (INSR, Homo sapiens, UniProt P06213)	66.8%
Cyclin-dependent kinase 3, with cyclin E (CDK3, Homo sapiens, UniProt Q00526)	52.3%
AKT1 (Homo sapiens, UniProt P31749)	97.8%
MATK (Homo sapiens, UniProt P42679)	98%
NLK (Homo sapiens, UniProt Q9UBE8)	94.6%
ITK (Homo sapiens, UniProt Q08881)	53%
PKN1 (Homo sapiens, UniProt Q16512)	87.5%
FER (Homo sapiens, UniProt P16591)	67.8%
CDC42BPA (Homo sapiens, UniProt Q5VT25)	93.7%
FLT4 (Homo sapiens, UniProt P35916)	53%
MARK3 (Homo sapiens, UniProt P27448)	85.8%
FGR (Homo sapiens, UniProt P09769)	35.7%
ALK (Homo sapiens, UniProt Q9UM73)	76.5%

A few entries again (study 1):
target	remaining binding
CSNK1G1 (Homo sapiens, UniProt Q9HCP0)	100%
CAMK1 (Homo sapiens, UniProt Q14012)	100%
PRKG2 (Homo sapiens, UniProt Q13237)	74%
Tyrosine-protein kinase ABL1, phosphorylated (ABL1, Homo sapiens, UniProt P00519)	92%
SGK2 (Homo sapiens, UniProt Q9HBY8)	94%
RIPK2 (Homo sapiens, UniProt O43353)	94%
NEK6 (Homo sapiens, UniProt Q9HC98)	100%
ALK (Homo sapiens, UniProt Q9UM73, C1156Y)	100%
HIPK3 (Homo sapiens, UniProt Q9H422)	96%
PTK6 (Homo sapiens, UniProt Q13882)	100%
FLT3 (Homo sapiens, UniProt P36888, N841I)	100%
LATS1 (Homo sapiens, UniProt O95835)	78%
